Experimental data gathered from unrelated publications.
Each numbered part is a random draw from the data of one study; scales do not carry over between parts.

Set 1 — method: protein-binding microarray; form: double-stranded DNA, one strand shown; sample: in vitro; tested at: 940 nM top; setting: 60-bp whole probe; added: salmon DNA 0.4 mg/ml; reference: random background probes; reading: higher = stronger binding; endpoint: fitted relative affinity; shared flanks, not repeated: GCCTAGCAC … GTCTTGATTCGCTTGACGCTGCTG
Target: Interferon regulatory factor 5, full length, phosphomimetic (IRF5, Homo sapiens, UniProt Q13568-2, residues 1-514, S451D/S453D/S456D/S462D)
TTAGGTATCGCTTTCGGTTAGTGCTAG: 7.07 z-score
TCAGTTTTCATTTTCTGACTGTGCTAG: 1.98 z-score
CACGGTTTCGACTTTCGGGACGTGCTA: 7.41 z-score
GACGGACTGCTTATCCTGCCGTGCTAG: -0.425 z-score
TTAGAACTGGGGACTGGATTAGTGCTA: 0.0257 z-score

Set 2 — method: universal PBM; form: double-stranded DNA, one strand shown; sample: in vitro; tested at: not given; reading: higher = stronger binding; endpoint: E-score
Target: Sal-like protein 4, full length isoform B (SALL4, Homo sapiens, UniProt Q9UJQ4-2, residues 1-616)
Setting: 8-mer, flanks averaged, mean of replicates
Residues (chain): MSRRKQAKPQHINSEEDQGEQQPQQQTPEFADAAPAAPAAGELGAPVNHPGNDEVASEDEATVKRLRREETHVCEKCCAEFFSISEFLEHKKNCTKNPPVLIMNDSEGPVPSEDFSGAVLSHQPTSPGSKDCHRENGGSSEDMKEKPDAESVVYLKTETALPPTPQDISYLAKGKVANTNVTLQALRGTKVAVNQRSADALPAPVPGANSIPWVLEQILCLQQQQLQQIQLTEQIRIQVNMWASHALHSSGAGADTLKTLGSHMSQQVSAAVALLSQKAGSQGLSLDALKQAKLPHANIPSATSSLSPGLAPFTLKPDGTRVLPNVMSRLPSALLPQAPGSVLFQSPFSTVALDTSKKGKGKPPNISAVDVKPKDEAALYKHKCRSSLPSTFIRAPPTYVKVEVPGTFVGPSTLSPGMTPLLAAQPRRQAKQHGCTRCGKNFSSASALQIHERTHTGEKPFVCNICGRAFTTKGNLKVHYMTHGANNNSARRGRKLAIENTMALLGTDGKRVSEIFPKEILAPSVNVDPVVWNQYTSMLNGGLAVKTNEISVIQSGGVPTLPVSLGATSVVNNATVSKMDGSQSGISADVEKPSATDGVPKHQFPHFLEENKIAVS
TCGAACAA: 0.102
CAGAGGTA: 0.0186
CGGGATAG: -0.102
ACAGTTTC: -0.0115
AACAATGA: 0.227
ACGTTCCC: -0.114

Set 3 — method: protein binding microarray; form: double-stranded DNA, one strand shown; sample: in vitro; tested at: not given; reference: not given; reading: higher = stronger binding; endpoint: E-score
Target: Histone acetyltransferase KAT6A, winged helix 2, GST fusion (KAT6A, Homo sapiens, UniProt Q92794, residues 85-181)
Setting: 8-mer, flanks averaged, mean of 2 arrays, mostly near background
Construct (chain): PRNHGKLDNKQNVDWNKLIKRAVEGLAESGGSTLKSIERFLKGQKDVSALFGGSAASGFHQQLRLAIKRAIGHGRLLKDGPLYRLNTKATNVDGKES
CGCTGTCA: 0.0855
ACGTTAGG: -0.255
AGGTCCAC: -0.114
AAGTAGAC: 0.0559
AGGTAAAA: 0.0315
CGTCTTCA: 0.0334

Other studies, line by line
PhoQ, residues 284 288 289 292 302 303 GNNTDL — fold induction (PhoP, residues 12 14 15 18 19 NQFFI (Escherichia coli, UniProt P23836); Sort-seq, refers to: YFP reporter; E. coli; PhoQ-PhoP variant library, added: 10 µM Mg2+; reference: high Mg2+ state, higher = stronger signaling): 6.18

For quick reference, copied from above (set 2):
ACAGTTTC: -0.0115
AACAATGA: 0.227
ACGTTCCC: -0.114
